Results from different studies.
A part holds a random share of what one study measured. Several values in a cell are separate wells, animals, samples, runs or records.

Block 1
Target: DNA polymerase theta, ATPase domain (POLQ, Homo sapiens, UniProt O75417)
Chain of UniProt O75417 (whole entry, unmodified, looked up): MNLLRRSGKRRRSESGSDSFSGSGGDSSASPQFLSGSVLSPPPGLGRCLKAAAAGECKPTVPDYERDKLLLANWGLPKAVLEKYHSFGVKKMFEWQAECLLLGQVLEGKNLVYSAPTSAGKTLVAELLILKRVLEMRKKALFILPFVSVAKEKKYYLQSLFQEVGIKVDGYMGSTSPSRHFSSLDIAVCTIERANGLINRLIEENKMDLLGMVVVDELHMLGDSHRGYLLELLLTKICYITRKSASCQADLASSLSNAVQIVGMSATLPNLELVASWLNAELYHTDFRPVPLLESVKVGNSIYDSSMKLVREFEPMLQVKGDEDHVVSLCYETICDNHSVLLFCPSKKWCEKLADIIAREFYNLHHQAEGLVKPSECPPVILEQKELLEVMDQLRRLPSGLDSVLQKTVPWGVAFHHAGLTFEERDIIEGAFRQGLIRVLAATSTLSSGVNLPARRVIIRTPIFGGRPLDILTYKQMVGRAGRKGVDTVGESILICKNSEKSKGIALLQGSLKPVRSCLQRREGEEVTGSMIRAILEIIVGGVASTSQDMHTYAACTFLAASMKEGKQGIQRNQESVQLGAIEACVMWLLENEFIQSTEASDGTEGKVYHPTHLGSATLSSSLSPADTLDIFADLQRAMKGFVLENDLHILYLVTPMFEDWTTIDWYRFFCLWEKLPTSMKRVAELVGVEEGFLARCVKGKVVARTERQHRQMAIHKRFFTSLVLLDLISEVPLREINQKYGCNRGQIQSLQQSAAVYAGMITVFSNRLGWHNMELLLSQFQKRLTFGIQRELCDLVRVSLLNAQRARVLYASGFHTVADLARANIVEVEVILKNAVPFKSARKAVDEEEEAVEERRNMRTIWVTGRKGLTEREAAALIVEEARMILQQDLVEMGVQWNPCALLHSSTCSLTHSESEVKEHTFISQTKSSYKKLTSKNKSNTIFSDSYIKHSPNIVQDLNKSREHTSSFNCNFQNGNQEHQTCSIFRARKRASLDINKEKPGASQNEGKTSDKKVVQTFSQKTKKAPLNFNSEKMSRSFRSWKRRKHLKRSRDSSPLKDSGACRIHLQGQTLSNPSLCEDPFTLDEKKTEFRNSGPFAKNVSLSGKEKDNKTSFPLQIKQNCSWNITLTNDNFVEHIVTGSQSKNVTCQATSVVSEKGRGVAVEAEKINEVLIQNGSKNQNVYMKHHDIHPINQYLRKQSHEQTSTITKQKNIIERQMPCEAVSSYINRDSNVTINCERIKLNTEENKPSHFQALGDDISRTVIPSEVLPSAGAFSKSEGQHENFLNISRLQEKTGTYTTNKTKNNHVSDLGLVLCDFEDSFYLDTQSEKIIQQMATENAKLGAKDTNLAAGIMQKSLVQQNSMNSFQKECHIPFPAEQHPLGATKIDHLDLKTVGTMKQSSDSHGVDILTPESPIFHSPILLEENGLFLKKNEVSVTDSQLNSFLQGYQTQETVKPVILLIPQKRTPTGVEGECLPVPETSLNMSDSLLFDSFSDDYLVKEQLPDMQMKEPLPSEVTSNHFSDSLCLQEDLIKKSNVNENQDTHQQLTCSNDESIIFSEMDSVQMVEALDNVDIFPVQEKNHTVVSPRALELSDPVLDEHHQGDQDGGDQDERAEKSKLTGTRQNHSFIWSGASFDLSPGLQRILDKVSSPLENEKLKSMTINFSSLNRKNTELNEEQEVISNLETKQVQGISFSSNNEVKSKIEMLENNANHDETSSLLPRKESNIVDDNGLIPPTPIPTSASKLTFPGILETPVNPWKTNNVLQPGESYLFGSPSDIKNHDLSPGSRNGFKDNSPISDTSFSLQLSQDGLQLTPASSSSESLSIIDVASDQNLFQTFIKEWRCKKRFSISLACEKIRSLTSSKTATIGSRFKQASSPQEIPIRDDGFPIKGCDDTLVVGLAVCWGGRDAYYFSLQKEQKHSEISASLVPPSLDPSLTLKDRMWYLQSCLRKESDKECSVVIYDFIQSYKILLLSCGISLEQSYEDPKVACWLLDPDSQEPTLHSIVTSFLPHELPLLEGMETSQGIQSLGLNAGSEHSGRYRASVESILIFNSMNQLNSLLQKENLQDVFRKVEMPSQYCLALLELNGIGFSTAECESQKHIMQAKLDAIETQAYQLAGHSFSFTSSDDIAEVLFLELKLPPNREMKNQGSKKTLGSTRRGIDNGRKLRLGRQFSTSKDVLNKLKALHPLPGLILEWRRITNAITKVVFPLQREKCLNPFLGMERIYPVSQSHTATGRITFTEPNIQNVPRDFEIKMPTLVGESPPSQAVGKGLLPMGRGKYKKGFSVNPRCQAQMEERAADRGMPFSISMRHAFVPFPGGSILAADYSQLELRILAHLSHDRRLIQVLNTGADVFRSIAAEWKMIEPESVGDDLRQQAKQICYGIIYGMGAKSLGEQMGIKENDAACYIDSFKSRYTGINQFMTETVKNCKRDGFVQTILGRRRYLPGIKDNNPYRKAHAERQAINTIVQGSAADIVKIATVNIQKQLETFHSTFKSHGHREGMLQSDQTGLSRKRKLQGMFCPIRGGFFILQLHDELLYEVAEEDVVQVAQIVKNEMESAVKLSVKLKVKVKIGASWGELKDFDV
Observed: enzyme activity
Action: inhibitor
Tested at: 77 µM
Reference: untreated
`O=P1(NCCCl)OCCCN1CCCl` (centres unmarked) has a remaining activity of 98.2% and 101%.
For `CC(NC(C)(C)C)C(=O)c1cccc(Cl)c1` (centres unmarked), the remaining activity was 104%.
The remaining activity of `CN(C)[C@@H]1C(=O)C(C(N)=O)=C(O)[C@@]2(O)C(=O)C3=C(O)c4c(O)cccc4[C@@](C)(O)[C@H]3C[C@@H]12` is reported as 95.5%.
For `O=C(N[C@H]1CN2CCC1CC2)c1cc2ccoc2cn1`, the remaining activity was 101%.
For `C[C@H](N)[C@H](O)c1ccccc1`, the remaining activity was 94.5%.

Block 2
Structure (SMILES): CCOc1ccc(Nc2c3c(nc4ccccc24)CCC3)cc1
Organism: Leishmania donovani
It gave 5% and 12% and 4% and 11% for inhibition (parasite growth; DD8 amphotericin B-resistant, intracellular amastigotes; 0.2 µM).
For parasite growth; DD8 amphotericin B-resistant, promastigotes; 0.066 µM: inhibition read 4% and 2% and 1%.
It gave 4% and 2% and 6% and 1% for inhibition (parasite growth; DD8 amphotericin B-resistant, promastigotes; 0.033 µM).
parasite viability, resazurin; DD8, promastigotes; 0.0066 µM — inhibition: -3% and -4% and 2%.
For parasite growth; 6.66 µM, promastigote: inhibition read 37%.

Block 3
Cell line: HEK-293T/ACE2
Tested at: concentration not given
Time: 16 (unit not given)
Reference: vehicle
`NS(=O)(=O)Cc1noc2ccccc12` gave a viability of 98.8%.
With `CCCC1O[C@@H]2C[C@H]3[C@@H]4CCC5=CC(=O)C=C[C@]5(C)[C@H]4[C@@H](O)C[C@]3(C)[C@]2(C(=O)CO)O1` (some centres unmarked) the viability was 94.8%.
With `CCOC(=O)O[C@]1(C(=O)OCCl)CC[C@H]2[C@@H]3CCC4=CC(=O)C=C[C@]4(C)[C@H]3[C@@H](O)C[C@@]21C` the viability was 104%.
`CC1(C)S[C@@H]2[C@H](NC(=O)[C@H](NC(=O)N3CCNC3=O)c3ccccc3)C(=O)N2[C@H]1C(=O)O` has a viability of 98.8%.
For `N[C@@H]1CON=C1O`, the viability was 99.6%.
For `CCCNC(=O)NS(=O)(=O)c1ccc(Cl)cc1`, the viability was 100%.
For `CC(=O)OCC(COC(C)=O)OC(C)=O`, the viability was 97.7%.
With `CC(=O)OCC(=O)[C@@]1(O)CC[C@H]2[C@@H]3CCC4=CC(=O)CC[C@]4(C)[C@H]3C(=O)C[C@@]21C` the viability was 92.9%.
For `C[C@H]1C[C@H]2[C@@H]3CCC4=CC(=O)C=C[C@]4(C)[C@@]3(F)[C@@H](O)C[C@]2(C)[C@@]1(O)C(=O)CO`, the viability was 99.6%.
With `COCCc1ccc(OCC(O)CNC(C)C)cc1` (centres unmarked) the viability was 104%.

Block 4
Cell line: mouse MPNST tumor cells
Technique: high-content immunofluorescence imaging
Item: nuclear SOX9
Tested at: 10 µM
Time: 12 h
Notes: mean of 2 replicates
Reference: DMSO control
Reading: higher = more nuclear SOX9
`O=[N+]([O-])O[C@H]1CO[C@H]2[C@@H]1OC[C@H]2O[N+](=O)[O-]` — result for “nuclear SOX9 intensity”: 97.5 % of DMSO and 97.3 % of DMSO.
`COc1cc2c(c(OC)c1OC)-c1ccc(OC)c(=O)cc1[C@@H](NC(C)=O)CC2` — result for “nuclear SOX9 intensity”: 215 % of DMSO.
Under “nuclear SOX9 intensity”, `CC(=O)O[C@H]1C[C@H](O[C@H]2[C@@H](O)C[C@H](O[C@H]3[C@@H](O)C[C@H](O[C@H]4CC[C@@]5(C)[C@H](CC[C@@H]6[C@@H]5C[C@@H](O)[C@]5(C)[C@@H](C7=CC(=O)OC7)CC[C@]65O)C4)O[C@@H]3C)O[C@@H]2C)O[C@H](C)[C@H]1O[C@@H]1O[C@H](CO)[C@@H](O)[C@H](O)[C@H]1O` is recorded as 105 % of DMSO.
`CCC(=O)O[C@@](Cc1ccccc1)(c1ccccc1)[C@@H](C)CN(C)C`: “nuclear SOX9 intensity” 105 % of DMSO.
Under “nuclear SOX9 intensity”, `COC(=O)[C@@H](N)CCCNC(=N)N[N+](=O)[O-]` is recorded as 94.1 % of DMSO.

Block 5
Target: 5-hydroxytryptamine receptor 2C (HTR2C, Homo sapiens, UniProt P28335)
Chain of UniProt P28335 (whole entry, looked up): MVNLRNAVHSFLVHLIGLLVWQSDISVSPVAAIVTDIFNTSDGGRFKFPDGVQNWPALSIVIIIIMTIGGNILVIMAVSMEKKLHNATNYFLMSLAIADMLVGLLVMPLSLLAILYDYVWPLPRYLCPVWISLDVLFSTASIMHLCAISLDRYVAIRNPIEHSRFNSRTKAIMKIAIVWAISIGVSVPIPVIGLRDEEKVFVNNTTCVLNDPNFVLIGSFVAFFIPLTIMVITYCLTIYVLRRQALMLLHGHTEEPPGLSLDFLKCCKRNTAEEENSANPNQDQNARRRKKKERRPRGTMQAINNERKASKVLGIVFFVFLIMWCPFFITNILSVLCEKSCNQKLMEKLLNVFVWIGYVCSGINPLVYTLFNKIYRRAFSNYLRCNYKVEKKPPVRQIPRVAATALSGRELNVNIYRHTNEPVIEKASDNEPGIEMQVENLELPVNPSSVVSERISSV
Observed: ligand displacement
Tested at: 10 µM
`CN1CCN(c2ccnc(NCCc3ccccc3)n2)CC1` has an inhibition of 94.8%.
For `COCc1nc2cnc3cc(-c4c(C)noc4C)c(OC[C@H]4CCNC4)cc3c2n1[C@H](C)c1ccccc1`, the inhibition was -0.02%.
`CC(=O)Nc1nc(CN2CCC[C@H](Cc3cc(C)nc(C)c3)C2)cs1` gave an inhibition of 16.3%.
`CCC(F)(F)c1cc(N2CCC(S(C)(=O)=O)CC2)nc2sc(C(N)=O)c(N)c12` has an inhibition of -5.41%.
With `CN1CCN(C(=O)C(C)(C)c2ccc(C(=O)Nc3cn4cc(-c5cc(C(C)(C)C)cc(C(C)(C)C)c5)ccc4n3)cc2)CC1` the inhibition was 83%.
`Cn1nc(C(F)(F)F)cc1-c1cnc(N2CCc3cc(S(=O)(=O)Nc4c(F)cc(Cl)cc4F)cc(N4CCCC4=O)c32)nc1` has an inhibition of 31%.
The inhibition of `COc1cccc(NC(=O)c2nc3scc(CN(C)Cc4ccccc4)c3c(=O)[nH]2)c1` is reported as 13.5%.
The inhibition of `CS(=O)(=O)N1CCCC(NC(=O)[C@H](CCC2CCCCC2)NC(=O)c2ccc(CNC(=O)c3cnc4ccccn34)cc2)C1` (some centres unmarked) is reported as 8.24%.
The inhibition of `O=C(NNS(=O)(=O)c1ccccc1)c1cc(-c2ccnnc2)ccc1F` is reported as 7.81%.
The inhibition of `CC[C@H](CC(=O)O)n1c(=O)c2ncccc2n(Cc2cn(C)c3cc(C)cc(C)c23)c1=O` is reported as 1.02%.
For `O=C(NNS(=O)(=O)c1ccccc1F)c1cc(F)cc(-c2ccccn2)c1`, the inhibition was 6.46%.
With `CCC(=NO)C(C)=Cc1ccc(F)c(C)c1` the inhibition was 27%.
`C[C@H](c1ccc(F)cc1)N(Cc1cccc(C(=O)O)c1)C(=O)c1cnc2ccccc2c1` gave an inhibition of 6.54%.
The inhibition of `CN(c1ccnc(CNc2nc(Nc3ccc4c(c3)CC(=O)N4)ncc2C(F)(F)F)n1)S(C)(=O)=O` is reported as 8.11%.
For `COc1cc(C(=O)O)ncc1C#Cc1ccccc1NS(=O)(=O)c1cccc2c(N(C)C)ccnc12`, the inhibition was 7.95%.
`C[C@H](c1ccc(F)cc1)N(Cc1ccc(Cl)c(C(=O)O)c1)C(=O)c1cnc2ccccc2c1` gave an inhibition of -7.78%.
For `Cc1noc([C@H]2C[C@@H](c3ccc(C(F)(F)F)cc3)CN(C(=O)N3CCS(=O)(=O)C3)C2)n1`, the inhibition was 37.1%.
`N#CC1(c2ccccn2)CCN(Cc2cc(C(=O)O)c(=O)n3ccccc23)CC1` has an inhibition of 10.5%.
With `NC(=O)c1ccc2nc(-c3ccc(C4(N)CCC4)cc3)c(-c3ccccc3)n2n1` the inhibition was 25.7%.
For `CCOc1cc(N2C3COCC2CN(C(=O)[C@H]2C[C@H](O)CN2c2ccc(Cl)cc2)C3)ccc1Cl`, the inhibition was 4.08%.
`CNC(=O)Nc1ccc2c(c1)CC[C@]21OC(=O)N(CC(=O)N(Cc2ccc(F)cc2)[C@@H](C)C(F)(F)F)C1=O` has an inhibition of 16.5%.
For `C[C@@H](c1cccc(C#N)c1)n1cc(Cl)cc(C(N)=O)c1=N`, the inhibition was 16.8%.
The inhibition of `CN1C(=O)[C@@H](N2CCc3c(nn(Cc4ccccc4)c3Br)C2=O)COc2ccccc21` is reported as 2.4%.
`NS(=O)(=O)c1cc(NC(=O)Cc2ccccc2)ccc1Oc1cccc(Cl)c1` gave an inhibition of 55.4%.
`c1ccc(C2CCN(c3cnc4c(N5CCOCC5)nccn34)CC2)cc1` has an inhibition of 5.92%.

Excerpt of the above (block 2):
It gave 5% and 12% and 4% and 11% for inhibition (parasite growth; DD8 amphotericin B-resistant, intracellular amastigotes; 0.2 µM).
parasite viability, resazurin; DD8, promastigotes; 0.0066 µM — inhibition: -3% and -4% and 2%.
For parasite growth; 6.66 µM, promastigote: inhibition read 37%.
It gave 4% and 2% and 6% and 1% for inhibition (parasite growth; DD8 amphotericin B-resistant, promastigotes; 0.033 µM).
For parasite growth; DD8 amphotericin B-resistant, promastigotes; 0.066 µM: inhibition read 4% and 2% and 1%.
